Measured values collected from several papers.
Each numbered part is a random draw from the data of one study; scales do not carry over between parts.

Sample 1 — cell line: HEK-293T/ACE2; concentration: concentration not given; time: 16 (unit not given); baseline: vehicle; endpoint: viability
CC(CN1c2ccccc2Sc2ccccc21)N(C)C (centres unmarked): 98.9%
CC(C[N+](C)(C)C)OC(N)=O (centres unmarked): 104%
CO[C@H]1/C=C/O[C@@]2(C)Oc3c(C)c(O)c4c(O)c(c(/C=N/N5CCN(C6CCCC6)CC5)c(O)c4c3C2=O)NC(=O)/C(C)=C\C=C\[C@H](C)[C@H](O)[C@@H](C)[C@@H](O)[C@@H](C)[C@H](OC(C)=O)[C@@H]1C: 100%
CN(C)[C@@H]1C(O)=C(C(N)=O)C(=O)[C@@]2(O)C(O)=C3C(=O)c4c(O)ccc(Cl)c4[C@@H](O)[C@H]3C[C@@H]12: 102%

Sample 2 — observed: enzyme activity; mode: inhibitor; concentration: 20 µM; setting: hit confirmation; endpoint: inhibition
Target: Replicase polyprotein 1ab, main protease (rep, Severe acute respiratory syndrome coronavirus 2, UniProt P0DTD1)
Oc1c(I)cc(I)c2cccnc12: 33%
CNc1nc(Nc2cn(C(C)(C)C#N)nc2C)ncc1C(F)(F)F: 70.9%
O=C1C=CC(=O)C2=C1C1c3ccccc3C2c2ccccc21: 100%

Sample 3 — observed: enzyme activity; mode: inhibitor; concentration: 20 µM; endpoint: inhibition
Target: Replicase polyprotein 1ab, polymerase (rep, Severe acute respiratory syndrome coronavirus 2, UniProt P0DTD1)
COc1ccc2[nH]cc(CCNC(C)=O)c2c1: -2.79%
O=C(O)CCCCCCCC(=O)O: -2.08%
C[N+]1(CC2CC2)[C@@H]2C[C@@H](OC(=O)[C@H](CO)c3ccccc3)C[C@H]1[C@@H]1O[C@@H]12 (some centres unmarked): -0.5%
N#Cc1cc(CN2CCC(Nc3ncnc4sc(Cl)cc34)CC2)ccc1F: -6.66%
Cn1cc(/C=C2\C(=O)Nc3cccnc32)c2ccccc21: 7.42%
COC(=O)/C=C/C(=O)N[C@@H]1CC[C@@]2(O)[C@H]3Cc4ccc(O)c5c4[C@@]2(CCN3CC2CC2)[C@H]1O5: -5.18%
COc1cc(-n2c(=S)[nH]c3ccccc3c2=O)c(Cl)cc1Cl: 0.72%
c1ccc([C@H]2CN3CCSC3=N2)cc1: -1.55%
Nc1ccc(S(=O)(=O)NC(=O)c2ccccc2)cc1: 24.4%
COc1cc2ncnc(Sc3nnc(C)s3)c2cc1OC: -5.6%
NC(N)=NCCC(=O)O: -1.01%
COc1ccc([C@@H]2Sc3ccccc3N(CCN(C)C)C(=O)[C@@H]2OC(C)=O)cc1: 0.35%
O=C(O)/C=C1\CCCc2ccccc2C1O (centres unmarked): -1.1%
CCOC(=O)/C=C(C)/C=C/C=C(C)/C=C/c1c(C)cc(OC)c(C)c1C: -8.25%
O=C(NCCCCN1CCN(c2cccc(Cl)c2Cl)CC1)c1ccc2c(c1)Cc1ccccc1-2: 5.65%
C/C=C(/C)C(=O)O[C@H]1C(C)=C[C@]23C(=O)[C@@H](C=C(CO)[C@@H](O)[C@]12O)[C@H]1[C@@H](C[C@H]3C)C1(C)C: -2.74%
O=C(O)C(O)c1ccccc1 (centres unmarked): 0.26%
N[C@@H](CCNCc1ccc(Cl)cc1)C(=O)N1CCCCC1: -11.7%
CSCC[C@H](NC(=O)[C@H](CC(C)C)NC(=O)CNC(=O)[C@H](Cc1ccccc1)NC(=O)[C@H](Cc1ccccc1)NC(=O)[C@H](CCC(N)=O)NC(=O)[C@H](CCC(N)=O)NC(=O)[C@@H]1CCCN1C(=O)[C@H](CCCCN)NC(=O)[C@@H]1CCCN1C(=O)[C@@H](N)CCCN=C(N)N)C(N)=O: -1.21%
CCOC(=O)c1cc(C#N)c(N2CCC(C(=O)NS(=O)(=O)Cc3ccccc3)CC2)nc1C: -0.11%
CS(=O)(=O)OC[C@H](O)[C@@H](O)COS(C)(=O)=O: -1.75%
COc1ccc(-c2ccc3ncc4c(c3c2)n(-c2ccc(N3CCNCC3)c(C(F)(F)F)c2)c(=O)n4C)cn1: 27%
COc1ccc2c(c1)/C(=C/c1cnc[nH]1)C(=O)N2: 4.62%
Cc1nc(Nc2n[nH]c3c2CN(C(=O)N[C@H](CN(C)C)c2ccccc2)C3(C)C)c2sccc2n1: 16.8%
O=C1OCCN1/N=C/c1ccc([N+](=O)[O-])o1: 17.2%

Sample 4 — method: protein-binding microarray; form: double-stranded DNA, one strand shown; matrix: in vitro; concentration: 0.8 µM; setting: whole 60-bp probe, no competitor; direction: higher = stronger binding; endpoint: fluorescence intensity; shared flanks, not repeated: … GTCTTGATTCGCTTGACGCTGCTG
Target: Centromere-binding protein 1, full length, N-terminal tag (CBF1, Saccharomyces cerevisiae, UniProt P17106, residues 1-351)
UniProt P17106, sequence (whole entry, looked up): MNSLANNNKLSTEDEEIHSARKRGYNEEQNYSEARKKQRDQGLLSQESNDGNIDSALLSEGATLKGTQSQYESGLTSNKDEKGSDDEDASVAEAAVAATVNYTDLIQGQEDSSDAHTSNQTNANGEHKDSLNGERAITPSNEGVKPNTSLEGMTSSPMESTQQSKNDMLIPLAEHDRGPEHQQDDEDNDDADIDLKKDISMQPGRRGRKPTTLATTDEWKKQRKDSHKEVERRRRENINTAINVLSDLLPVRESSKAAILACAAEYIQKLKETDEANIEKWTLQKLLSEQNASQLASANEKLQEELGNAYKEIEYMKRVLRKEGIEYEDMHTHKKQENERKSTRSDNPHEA
CTAGCTGGTGCAGGTGACGCACGAACTTCTTAGTTC: 1640 a.u.
CTAACCTAATAACTTCATGTGATCTGCTCCCCCTTC: 1090 a.u.
GAATTTATAGGTTCACATGATATGAGTATAAATTAG: 1420 a.u.
GAATAATTTTTTTTTACCGTGACGCGTCTCACCTAG: 611 a.u.
CTATTTCAGATCGCGCACGACGGAGAGGTTTTTTTC: 510 a.u.
CTAAACCCTGTCAATCTCCTGAAAAACAAAAATTTC: 523 a.u.
CTATCGTGGGAAATCCTGATGTCCAACGGTGAGTTC: 505 a.u.
GAACTAAAGAAAAGTGAGGTCACCTACCATCAATAG: 536 a.u.

Sample 5 — method: protein binding microarray; form: double-stranded DNA, one strand shown; matrix: in vitro; concentration: not given; baseline: not given; direction: higher = stronger binding; endpoint: E-score
Target: Histone acetyltransferase KAT6A, winged helix 1, GST fusion (KAT6A, Homo sapiens, UniProt Q92794, residues 1-85)
Setting: 8-mer, flanks averaged, mean of 2 arrays, mostly near background
Target sequence (chain): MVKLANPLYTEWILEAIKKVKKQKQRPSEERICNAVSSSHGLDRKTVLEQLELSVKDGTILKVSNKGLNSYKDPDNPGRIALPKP
ATCTCGCC: 0.153
ATAACATG: 0.0144
TTCCGCAA: 0.0582
GGCCGCCA: 0.268
CTTACGTA: -0.0167
CAGCTACG: -0.0834
ACGTGTGA: -0.227
GTCAAGTA: -0.205

Sample 6 — method: RNA Bind-n-Seq; form: RNA; matrix: in vitro; concentration: 200 nM; setting: whole 134-nt RNA, ends assumed; together with: 150 mM LiCl; baseline: input library; direction: higher = stronger binding; endpoint: log2 enrichment; all molecules: 7-deaza-guanosine replaces G
Target: Fragile X messenger ribonucleoprotein 1, C-terminal low-complexity region (Fmr1, Mus musculus, UniProt P35922)
Shared flanks, not repeated: GGGAGUUCUACAGUCCGACGAUC … UGGAAUUCUCGGGUGUCAAGG
AUGAAGAUGAAGAAGAGGAUGAUGAGGACGAGGAUGACGACGACGACGAAGAUGAUGAAGAUGAUGAUGAUGAAGAUGAUGAGGAGGAGG: 1.34
AAGUCCUGUGCUACACAUCGUAUGUACCGAAUCGGGGCCCGGGGCCCGGCCCGGGGAAAGUAUUAUGUUACGCCGUUCGGAUCUGCACUU: -1.68
CUGUGCUACACAUCGUAUGUACCGAAUCGGGGUUUUUUUGGUUUUUUUGGGUUUUUUUGGGAAAGUAUUAUGUUACGCCGUUCGGAUCUG: 0.0921
CACAGACAACACGCACCCACACAGACACAGAGGGAAGGGGUUGGGAUGGGGACAGGGUGCACAGCAGGGCGGGGCAGGACCCCAGCCCCU: 1.8
AGUCCUGUGCUACACAUCGUAUGUACCGAAUCGGGGUUUUGGUUUUGGGUUUUGGGGAAAGUAUUAUGUUACGCCGUUCGGAUCUGCACU: -1.51
UGGCCCUGGUGGCAUGCGGGGAGGAAGAGGUGGCCUCAUGGAUCGUGGUGGUCCCGGUGGAAUGUUCAGAGGUGGCCGCGGUGGAGACAG: -0.637
CCUGUGCUACACAUCGUAUGUACCGAAUCGGGGUUUUUUUGGGGUUUUUGGGGUUUGGGGAAAGUAUUAUGUUACGCCGUUCGGAUCUGC: -0.898
CAAGUCCUGUGCUACACAUCGUAUGUACCGAAUCGGUUUUUGGUGGUUUUUUUGGAAAGUAUUAUGUUACGCCGUUCGGAUCUGCACUUC: -1.2

Repeated from above (sample 3):
Nc1ccc(S(=O)(=O)NC(=O)c2ccccc2)cc1: 24.4%
COc1cc2ncnc(Sc3nnc(C)s3)c2cc1OC: -5.6%
NC(N)=NCCC(=O)O: -1.01%
COc1ccc([C@@H]2Sc3ccccc3N(CCN(C)C)C(=O)[C@@H]2OC(C)=O)cc1: 0.35%
O=C(O)/C=C1\CCCc2ccccc2C1O (centres unmarked): -1.1%
CCOC(=O)/C=C(C)/C=C/C=C(C)/C=C/c1c(C)cc(OC)c(C)c1C: -8.25%
O=C(NCCCCN1CCN(c2cccc(Cl)c2Cl)CC1)c1ccc2c(c1)Cc1ccccc1-2: 5.65%
